Results from different studies.
Lines come from different studies, so protocols differ. “And” joins repeats or separate records; there may be more than shown. Numbers after ± are the reported error.

Structure (SMILES)	test	system	conditions	AUC(0-inf)
CNCc1cc(-c2ccccc2F)n(S(=O)(=O)c2cccnc2)c1	–	rat Sprague-Dawley male, plasma	oral, 10 mg/kg	303 ng·h/mL
OCC1=C[C@@H](O)[C@@H]2C=CO[C@@H](O[C@@H]3O[C@H](CO)[C@@H](O)[C@H](O)[C@H]3O)[C@H]12	–	rat, plasma	oral, 500 mg/kg Eu + 217 mg/kg Pc extract, dosed as combined Eu and Pc extracts	132 ± 53.1 ng·h/mL
C=CC(=O)N1CCC([C@@H]2CCNc3c(C(N)=O)c(-c4ccc(Oc5ccccc5)cc4)nn32)CC1	–	Sprague-Dawley rats, plasma	oral, 16 mg/kg, with: posaconazole 40 mg/kg	2890 ± 583 ng·h/mL
Cc1nc(-c2cnc(NC(C)C)n(C)c2=O)ccc1Oc1ccnc(-c2cnn(C)c2)c1	–	Sprague-Dawley rat, male, plasma	intravenous, 1 mg/kg	29600 ng·h/mL
CNC(=O)c1cccc(-c2ccc([C@@H](O)[C@H]3O[C@H](CO)[C@@H](O)[C@H](O)[C@@H]3O)c(C)c2)c1	–	male Sprague-Dawley rat, plasma	oral, 10 mg/kg, individual animal	103 ng·h/mL and 74 ng·h/mL
C1=C/COCc2cc(ccc2OCCN2CCCC2)Nc2nccc(n2)-c2cccc(c2)COC/1	LC-MS/MS	Sprague-Dawley rat, male, plasma	oral, 36 mg/kg, with: voriconazole 30 mg/kg oral	4210 ± 2390 ng·h/mL
Cc1cccc(CNC(=O)c2cn(CCNC(=O)c3ccccc3Sc3c([N+](=O)[O-])ncn3C)c3cc4c(cc3c2=O)OC(F)(F)O4)n1	–	Sprague-Dawley rat, male, plasma	intravenous, 20 mg/kg of parent drug	1650 ± 57.7 ng·h/mL
CCCc1c(-c2ccc(O)cc2)nn(-c2ccc(O)cc2)c1-c1ccc(O)cc1	measured: aglycone	rat, Long-Evans, female, serum	subcutaneous, 2 mg/kg single dose	2 ± 0.35 µM·h
CNC(=O)c1cccc(-c2ccc(O[C@H]3O[C@H](CO)[C@@H](O)[C@H](O)[C@@H]3O)c(C)c2)c1	–	male Sprague-Dawley rat, plasma	intravenous, 3 mg/kg, group mean	518 ng·h/mL
O=C1c2ccncc2C(=O)c2c1[nH]c1ccccc21	–	Sprague-Dawley rat, male, plasma	intravenous, 5 mg/kg	3.21 ± 1.77 µM·h
Cc1cccc(CNC(=O)c2cn(CCNC(=O)c3ccccc3S)c3cc4c(cc3c2=O)OC(F)(F)O4)n1	–	Sprague-Dawley rat, male, plasma	intravenous, 5 mg/kg of parent compound	145 ± 9.58 ng·h/mL
Cc1ccc(S(=O)(=O)n2cc3c4c2C(=O)C(NCc2ccc(Cl)cc2)=CC4=NCC3)cc1	–	Sprague-Dawley rat, plasma	intravenous, 5 mg/kg, individual rat	896 ng·h/mL and 2370 ng·h/mL and 2100 ng·h/mL
COC(=O)C1=CO[C@@H](O[C@@H]2O[C@H](CO)[C@@H](O)[C@H](O)[C@H]2O)[C@@H]2C(CO)=CC[C@H]12	–	rat, plasma	oral, 500 mg/kg Eu + 217 mg/kg Pc extract, dosed as combined Eu and Pc extracts	103 ± 86.2 ng·h/mL
CCCCN1CCN(C(C)C(=O)Nc2c(C)csc2C(=O)OC)CC1 (stereo not shown)	–	rat (Sprague-Dawley, male), plasma	subcutaneous, 62.3 mmol/L	5560 ng·h/mL
CCc1cc(C(=O)NC)c2nccc(N3CCc4c(cc(Cn5ccnc5)cc4-c4cn(C)nc4C(F)(F)F)C3=O)c2c1	–	Sprague Dawley rat, male, plasma	oral, 50 mg/kg once daily, 7 days, toxicokinetic satellite group	14400 ng·h/mL
Cc1cc(-c2ccc3cc[nH]c(=O)c3c2)ccc1O[C@H]1O[C@H](CO)[C@@H](O)[C@H](O)[C@@H]1O	–	male Sprague-Dawley rat, plasma	intravenous, 3 mg/kg, group mean	125 ng·h/mL
C=CC(=O)N1CCC(Oc2cc3c(Nc4ccc(Cl)c(Cl)c4F)ncnc3cc2OC)CC1	–	male Sprague-Dawley rats, plasma	oral, 2 mg/kg, with: schisandrin B pretreatment 20 mg/kg daily 1 week	6040 ± 1580 ng·h/mL
CSc1ccccc1C(=O)NCCn1cc(C(=O)NCc2cccc(C)n2)c(=O)c2cc3c(cc21)OC(F)(F)O3	–	Sprague-Dawley rat, male, whole blood	intravenous, 5 mg/kg of parent compound	131 ± 12.1 ng·h/mL
CCCCOCCOc1ccc(-c2ccc3c(c2)/C=C(/C(=O)Nc2ccc([S@@+]([O-])Cc4cncn4CCC)cc2)CCCN3CC(C)C)cc1	–	moderate hepatic impairment patients, plasma	oral, 150 mg, day 1, single dose, geometric mean	5810 ng·h/mL
